Measured values of several laboratories.
A part holds a random share of what one study measured. “And” joins repeats or separate records; there may be more than shown.
Sequence of UniProt O14920 (whole entry, looked up): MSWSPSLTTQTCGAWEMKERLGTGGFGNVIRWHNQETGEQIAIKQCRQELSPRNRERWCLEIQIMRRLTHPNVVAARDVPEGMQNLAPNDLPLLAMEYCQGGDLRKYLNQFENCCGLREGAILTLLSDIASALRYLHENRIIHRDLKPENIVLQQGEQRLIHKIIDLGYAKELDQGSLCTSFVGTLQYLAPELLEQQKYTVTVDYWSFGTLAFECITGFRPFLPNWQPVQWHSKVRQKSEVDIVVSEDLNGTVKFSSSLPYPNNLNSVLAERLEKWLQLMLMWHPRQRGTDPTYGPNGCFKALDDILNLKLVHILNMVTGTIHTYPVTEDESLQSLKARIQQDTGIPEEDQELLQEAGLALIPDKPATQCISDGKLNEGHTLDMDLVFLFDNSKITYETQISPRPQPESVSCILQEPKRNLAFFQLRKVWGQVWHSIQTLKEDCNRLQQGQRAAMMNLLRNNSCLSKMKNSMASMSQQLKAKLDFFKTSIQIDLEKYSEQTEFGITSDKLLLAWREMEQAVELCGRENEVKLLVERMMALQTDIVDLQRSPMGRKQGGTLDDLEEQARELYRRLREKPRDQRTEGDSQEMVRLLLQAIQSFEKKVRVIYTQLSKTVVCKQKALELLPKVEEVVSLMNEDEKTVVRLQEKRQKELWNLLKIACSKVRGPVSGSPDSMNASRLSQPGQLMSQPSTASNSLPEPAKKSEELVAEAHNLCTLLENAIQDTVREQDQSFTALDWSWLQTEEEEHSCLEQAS
Sequence of UniProt P13945 (whole entry, looked up): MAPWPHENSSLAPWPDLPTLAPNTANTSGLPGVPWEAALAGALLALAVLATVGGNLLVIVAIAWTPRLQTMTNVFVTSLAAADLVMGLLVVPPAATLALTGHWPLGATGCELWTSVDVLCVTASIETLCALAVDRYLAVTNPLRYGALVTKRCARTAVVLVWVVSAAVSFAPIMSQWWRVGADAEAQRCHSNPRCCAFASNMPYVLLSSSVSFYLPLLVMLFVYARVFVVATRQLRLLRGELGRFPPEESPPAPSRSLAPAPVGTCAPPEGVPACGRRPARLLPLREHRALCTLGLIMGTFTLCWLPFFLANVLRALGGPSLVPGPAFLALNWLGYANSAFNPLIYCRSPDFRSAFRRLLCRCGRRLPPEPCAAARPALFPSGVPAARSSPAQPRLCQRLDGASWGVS
Sequence of UniProt Q13976 (whole entry, looked up): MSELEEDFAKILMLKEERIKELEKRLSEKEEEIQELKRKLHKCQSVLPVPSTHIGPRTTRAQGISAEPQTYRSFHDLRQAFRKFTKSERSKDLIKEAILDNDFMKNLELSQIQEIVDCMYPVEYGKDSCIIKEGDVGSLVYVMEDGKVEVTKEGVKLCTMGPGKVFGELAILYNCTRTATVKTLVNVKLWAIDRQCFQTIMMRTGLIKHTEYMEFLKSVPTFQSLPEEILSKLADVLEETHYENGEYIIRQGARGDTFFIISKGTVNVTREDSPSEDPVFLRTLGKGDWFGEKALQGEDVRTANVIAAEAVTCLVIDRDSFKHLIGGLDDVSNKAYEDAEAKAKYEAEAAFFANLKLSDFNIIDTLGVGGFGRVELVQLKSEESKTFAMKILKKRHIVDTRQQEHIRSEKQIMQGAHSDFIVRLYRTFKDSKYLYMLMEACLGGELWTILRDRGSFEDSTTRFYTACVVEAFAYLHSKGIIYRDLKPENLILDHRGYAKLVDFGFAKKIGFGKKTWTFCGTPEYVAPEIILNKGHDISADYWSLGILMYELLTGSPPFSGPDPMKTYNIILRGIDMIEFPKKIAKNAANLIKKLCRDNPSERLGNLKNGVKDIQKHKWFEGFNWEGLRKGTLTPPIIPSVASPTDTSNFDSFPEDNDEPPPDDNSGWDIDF
Sequence of UniProt P36897 (whole entry, looked up): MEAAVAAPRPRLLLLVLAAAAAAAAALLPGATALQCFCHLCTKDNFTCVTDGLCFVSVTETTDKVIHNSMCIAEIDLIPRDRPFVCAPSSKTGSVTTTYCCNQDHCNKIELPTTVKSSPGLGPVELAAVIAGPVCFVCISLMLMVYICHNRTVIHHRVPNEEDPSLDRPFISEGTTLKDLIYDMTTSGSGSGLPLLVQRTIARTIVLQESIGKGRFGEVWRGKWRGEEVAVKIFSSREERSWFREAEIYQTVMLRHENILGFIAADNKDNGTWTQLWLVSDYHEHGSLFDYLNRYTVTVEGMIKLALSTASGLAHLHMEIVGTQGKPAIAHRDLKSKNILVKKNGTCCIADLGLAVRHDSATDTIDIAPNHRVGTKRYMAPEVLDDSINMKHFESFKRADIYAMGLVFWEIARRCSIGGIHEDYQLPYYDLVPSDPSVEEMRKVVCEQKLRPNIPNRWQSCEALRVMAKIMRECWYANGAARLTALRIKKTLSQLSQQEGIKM
Sequence of UniProt Q9UIK4 (whole entry, looked up): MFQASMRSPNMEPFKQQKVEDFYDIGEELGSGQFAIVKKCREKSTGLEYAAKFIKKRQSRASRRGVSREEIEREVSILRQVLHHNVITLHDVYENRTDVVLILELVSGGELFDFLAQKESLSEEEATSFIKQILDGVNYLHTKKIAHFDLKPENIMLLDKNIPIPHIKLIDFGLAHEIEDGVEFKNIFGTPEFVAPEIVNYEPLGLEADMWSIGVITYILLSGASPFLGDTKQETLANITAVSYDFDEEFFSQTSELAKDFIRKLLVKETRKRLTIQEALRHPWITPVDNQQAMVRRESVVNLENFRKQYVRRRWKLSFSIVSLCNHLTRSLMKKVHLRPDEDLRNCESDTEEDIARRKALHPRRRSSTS
Sequence of UniProt Q9H3N8 (whole entry, looked up): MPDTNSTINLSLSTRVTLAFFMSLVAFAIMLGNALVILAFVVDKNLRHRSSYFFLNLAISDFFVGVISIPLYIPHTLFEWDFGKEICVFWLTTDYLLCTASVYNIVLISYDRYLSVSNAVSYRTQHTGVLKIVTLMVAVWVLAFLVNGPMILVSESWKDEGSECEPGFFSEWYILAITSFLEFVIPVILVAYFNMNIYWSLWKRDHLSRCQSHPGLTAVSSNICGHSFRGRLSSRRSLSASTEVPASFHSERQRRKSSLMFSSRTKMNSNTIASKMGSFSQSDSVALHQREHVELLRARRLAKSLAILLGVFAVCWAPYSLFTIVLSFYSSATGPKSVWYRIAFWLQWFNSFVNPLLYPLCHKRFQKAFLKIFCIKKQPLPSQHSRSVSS
Sequence of UniProt P37173 (whole entry, looked up): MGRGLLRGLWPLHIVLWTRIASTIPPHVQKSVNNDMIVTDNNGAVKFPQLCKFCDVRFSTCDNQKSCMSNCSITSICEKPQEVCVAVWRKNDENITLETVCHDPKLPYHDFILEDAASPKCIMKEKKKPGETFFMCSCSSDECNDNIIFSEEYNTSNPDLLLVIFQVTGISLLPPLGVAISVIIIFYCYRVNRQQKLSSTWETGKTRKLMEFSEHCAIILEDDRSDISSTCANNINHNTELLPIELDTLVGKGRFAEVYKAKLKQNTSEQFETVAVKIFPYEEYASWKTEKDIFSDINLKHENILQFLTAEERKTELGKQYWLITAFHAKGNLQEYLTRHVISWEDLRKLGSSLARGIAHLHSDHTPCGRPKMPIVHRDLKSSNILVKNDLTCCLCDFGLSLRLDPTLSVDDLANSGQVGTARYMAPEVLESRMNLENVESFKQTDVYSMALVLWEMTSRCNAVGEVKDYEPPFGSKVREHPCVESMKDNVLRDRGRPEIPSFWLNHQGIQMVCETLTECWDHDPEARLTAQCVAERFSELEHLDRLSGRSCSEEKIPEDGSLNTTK
Sequence of UniProt P35462 (whole entry, looked up): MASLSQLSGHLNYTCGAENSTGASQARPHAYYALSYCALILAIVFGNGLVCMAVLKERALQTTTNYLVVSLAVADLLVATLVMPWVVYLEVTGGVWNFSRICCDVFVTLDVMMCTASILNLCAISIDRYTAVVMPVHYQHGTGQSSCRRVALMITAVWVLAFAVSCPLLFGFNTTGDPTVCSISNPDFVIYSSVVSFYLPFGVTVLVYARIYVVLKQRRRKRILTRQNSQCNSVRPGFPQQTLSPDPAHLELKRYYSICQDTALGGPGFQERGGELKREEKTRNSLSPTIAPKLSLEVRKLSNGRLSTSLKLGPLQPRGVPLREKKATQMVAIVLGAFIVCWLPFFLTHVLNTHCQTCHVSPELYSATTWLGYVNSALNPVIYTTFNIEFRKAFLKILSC
Sequence of UniProt O95747 (whole entry, looked up): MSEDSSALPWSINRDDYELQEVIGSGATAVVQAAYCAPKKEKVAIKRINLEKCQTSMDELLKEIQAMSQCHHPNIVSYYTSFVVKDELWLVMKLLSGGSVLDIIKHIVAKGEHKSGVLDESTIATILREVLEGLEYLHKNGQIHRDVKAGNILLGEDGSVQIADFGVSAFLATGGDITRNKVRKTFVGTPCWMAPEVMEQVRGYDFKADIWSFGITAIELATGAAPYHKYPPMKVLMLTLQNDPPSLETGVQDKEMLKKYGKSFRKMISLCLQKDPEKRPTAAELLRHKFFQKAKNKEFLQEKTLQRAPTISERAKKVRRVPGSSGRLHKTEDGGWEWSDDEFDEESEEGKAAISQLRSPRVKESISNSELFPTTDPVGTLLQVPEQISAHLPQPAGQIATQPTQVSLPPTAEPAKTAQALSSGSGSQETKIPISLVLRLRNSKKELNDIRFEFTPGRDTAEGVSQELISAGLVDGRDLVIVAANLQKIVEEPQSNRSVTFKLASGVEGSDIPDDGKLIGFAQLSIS
Sequence of UniProt Q5BJF2 (whole entry, looked up): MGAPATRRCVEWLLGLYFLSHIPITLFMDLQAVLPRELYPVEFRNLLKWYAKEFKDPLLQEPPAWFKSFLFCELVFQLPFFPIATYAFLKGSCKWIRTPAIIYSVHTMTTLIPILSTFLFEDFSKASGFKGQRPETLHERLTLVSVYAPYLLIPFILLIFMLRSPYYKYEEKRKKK

Sample 1
Cell line: HuT78
Tested at: 2 µM
Time: 48 h
Baseline: untreated
Endpoint: viability
O=C(NCc1cccc(O)c1)Nc1nc(-c2ccncc2)cs1: 88.5%
CNC(=O)CN1CCC(Oc2cc3c(Nc4cccc(Cl)c4F)ncnc3cc2OC)CC1: 123%
COc1cc2nccc(Oc3ccc(NC(=O)Nc4ccc(F)cc4F)c(F)c3)c2cc1OC: 141%
Cc1cn(-c2cc(NC(=O)c3ccc(C)c(Nc4nccc(-c5cccnc5)n4)c3)cc(C(F)(F)F)c2)cn1: 125%
COc1cc2c(Oc3ccc(NC(=O)C4(C(=O)Nc5ccc(F)cc5)CC4)cc3F)ccnc2cc1OCCCN1CCOCC1: 91%
O=c1cc(-c2cccc3c2Sc2ccccc2S3)oc(N2CCOCC2)c1: 167%
Cc1cc(C)c(/C=C2\C(=O)Nc3ccccc32)[nH]1: 103%
C1=N/C2=N/c3ccc(OCCN4CCCC4)c(c3)COC/C=C/COCc3cccc(c3)C(=C1)N2: 83.1%
C=CC(=O)N1CCC[C@@H](n2nc(-c3ccc(Oc4ccccc4)cc3)c3c(N)ncnc32)C1: 118%
Oc1c(F)cc(-c2cnccc2-c2ccc(N3CCOCC3)cc2)cc1F: 105%

Sample 2
Compound: NC(=O)c1cccc(-c2cc(Nc3ccc(OC(F)(F)F)cc3)ncn2)c1
Read-out: enzyme activity
Mode: inhibitor
Tested at: 0.5 µM
Baseline: control
Endpoint: remaining activity
TGFBR1 (Homo sapiens, UniProt P36897): 103%
Protein kinase C beta type, isoform beta-I (PRKCB, Homo sapiens, UniProt P05771): 97.4%
Cyclin-dependent kinase 4, with cyclin D1 (CDK4, Homo sapiens, UniProt P11802): 99.8%
NEK2 (Homo sapiens, UniProt P51955): 95.6%
DAPK2 (Homo sapiens, UniProt Q9UIK4): 99.1%
PRKACA (Homo sapiens, UniProt P17612): 94.2%
Cyclin-dependent kinase 5, with p25 (CDK5, Homo sapiens, UniProt Q00535): 80.1%
DAPK1 (Homo sapiens, UniProt P53355): 81.1%
STK39 (Homo sapiens, UniProt Q9UEW8): 85.5%
CAMKK2 (Homo sapiens, UniProt Q96RR4): 99.1%
CHEK2 (Homo sapiens, UniProt O96017): 101%
GRK3 (Homo sapiens, UniProt P35626): 80.5%
IKBKE (Homo sapiens, UniProt Q14164): 107%
CAMK2D (Homo sapiens, UniProt Q13557): 90.8%
Tyrosine-protein kinase Lyn, isoform B (LYN, Homo sapiens, UniProt P07948): 101%
cGMP-dependent protein kinase 1, isoform beta (PRKG1, Homo sapiens, UniProt Q13976): 92.9%
STK10 (Homo sapiens, UniProt O94804): 101%
OXSR1 (Homo sapiens, UniProt O95747): 97.9%
IKBKB (Homo sapiens, UniProt O14920): 98.6%
TGFBR2 (Homo sapiens, UniProt P37173): 94.9%

Sample 3
Compound: CNCc1ccccc1-c1csc([C@@H](C)Nc2nc(C)nc3cc(OC)c(OC)cc23)c1
Read-out: cell-free assay
Tested at: 10 µM
Endpoint: inhibition
ADRA2B (Homo sapiens, UniProt P18089): 64.2%
ADRA1D (Homo sapiens, UniProt P25100): 75%
ADRB1 (Homo sapiens, UniProt P08588): -11.2%
DRD4 (Homo sapiens, UniProt P21917): 56.7%
ADRB2 (Homo sapiens, UniProt P07550): 12.1%
CHRM2 (Homo sapiens, UniProt P08172): 74.2%
ADRA1B (Homo sapiens, UniProt P35368): 85.8%
HRH4 (Homo sapiens, UniProt Q9H3N8): 42.1%
CHRM4 (Homo sapiens, UniProt P08173): 43.1%
HRH3 (Homo sapiens, UniProt Q9Y5N1): 26.7%
HRH2 (Homo sapiens, UniProt P25021): 100%
DRD3 (Homo sapiens, UniProt P35462): 56.8%
DRD2 (Homo sapiens, UniProt P14416): 32.3%
ADRA2C (Homo sapiens, UniProt P18825): 94.2%
TMEM97 (Homo sapiens, UniProt Q5BJF2): 94.8%
ADRB3 (Homo sapiens, UniProt P13945): 20%

Single results of other studies
Ic1ccc(Nc2nc(NCCN3CCOCC3)nc(N3CCOCC3)n2)cc1
remaining activity (lysosomal β-galactosidase (human, wild type); healthy dermal fibroblasts; 1 µM, unit not given; baseline: DMSO): 1.13 and 1.11 and 1.1 and 1.09 and 1.22

Excerpt of the above (sample 3):
ADRA1D (Homo sapiens, UniProt P25100): 75%
ADRB1 (Homo sapiens, UniProt P08588): -11.2%
ADRA2C (Homo sapiens, UniProt P18825): 94.2%
HRH4 (Homo sapiens, UniProt Q9H3N8): 42.1%
DRD3 (Homo sapiens, UniProt P35462): 56.8%
TMEM97 (Homo sapiens, UniProt Q5BJF2): 94.8%
